Measured values pooled from the literature.
Every numbered part comes from another study and shows a few of its results, in no order.

Block 1
Target: Prothrombin, mature alpha-thrombin (F2, Homo sapiens, UniProt P00734)
Method: aptamer microarray, sandwich
Molecule type: DNA with 2'F-ANA
Medium: in vitro
Concentration: 200 nM
Setting: whole 15-mer aptamer, many near background
Together with: Cy3 exosite-II aptamer, 400 nM
Reading: higher = stronger binding
Oligonucleotide: GGTTGGTGTGGTTGG
`2'F-ANA at 3 5 9 10 12 13` — result for “mean fluorescence intensity”: 122 a.u.
For `2'F-ANA at 2 4 5 6 8 9 11 12 14 15`, “mean fluorescence intensity” read 52.5 a.u.
Under “mean fluorescence intensity”, `2'F-ANA at 8 11 12 13 15` is recorded as 656 a.u.
`2'F-ANA at 2 3 4 6 8 12 14 15` — result for “mean fluorescence intensity”: 315 a.u.
Under “mean fluorescence intensity”, `2'F-ANA at 1 3 5 6 7 10 12 14 15` is recorded as 48.6 a.u.
Under “mean fluorescence intensity”, `2'F-ANA at 1 2 3 5 6 8 9 12 14` is recorded as 46.4 a.u.
Under “mean fluorescence intensity”, `2'F-ANA at 2 3 5 6 10 11 12 13 14` is recorded as 55.3 a.u.
`2'F-ANA at 1 2 3 6 9 10 14 15` — result for “mean fluorescence intensity”: 54.2 a.u.

Block 2
Target: RNA binding protein fox-1 homolog 2, RRM domain, GST-SBP tag (RBFOX2, Homo sapiens, UniProt O43251-10, residues 100-194)
Method: RNA Bind-n-Seq
Molecule type: RNA
Medium: in vitro
Concentration: 365 nM
Setting: natural RNA segment, single round, ends assumed
Relative to: no-protein control
Reading: higher = stronger binding
Target sequence (chain): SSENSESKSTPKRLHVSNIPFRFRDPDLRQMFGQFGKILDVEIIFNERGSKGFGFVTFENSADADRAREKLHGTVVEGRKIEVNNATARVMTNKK
Under “RBNS enrichment (R)”, `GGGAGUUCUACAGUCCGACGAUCCCAAUAUAGUUUUCUAACUCCUGUUUGGGGAGCAAGUGUUAAUAAUAACUUAUUCCUAAAGCUUGGUUUUUCUUUUUUGUGAUUUUAUUGUGUAUAUGAGUGGUGGGUACUGGAAUUCUCGGGUGCCAA` is recorded as 1.23.
`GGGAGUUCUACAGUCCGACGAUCCUGAGGGUAUUAUGUAACCCUUCAGAAAACCACUUUGCCUCAUUGUGUUUCAGGAUUAACUUCUACAUGCCUUUAAGUUUUUCUGAGUAUCAGCAUAUCAUUUAGACAUUUGGAAUUCUCGGGUGCCAA`: “RBNS enrichment (R)” 0.37.
`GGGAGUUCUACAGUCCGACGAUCAGCCCCUACUCAGCAGGGCUCUGGGAAUGUGCCUUCCUUAUUUUAGUUUCAGAAUUGCUGGGAAAGUUACCCCACUGGUGGGUGAGGAUCUAUCCUCAACCUACAUCCAGUGGAAUUCUCGGGUGCCAA`: “RBNS enrichment (R)” 0.6.
Under “RBNS enrichment (R)”, `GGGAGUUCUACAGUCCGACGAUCGGGGUGGGUGUAGGGGCUUACAAAGCCUUACACAGGGCGAGGGGUUGGUGGGAGGGUUGGCACCUGCACACUCCAUCUCCUGCUCACCACCUGCCUCUAAUCUGAGCUGCUGGAAUUCUCGGGUGCCAA` is recorded as 0.352.
Under “RBNS enrichment (R)”, `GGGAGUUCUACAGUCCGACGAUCUGGAUACCUUUGAACUCCAUGGUUACGUGUUAGGUCCACAUUUGUGUUUUUUUCUAGCCUACCUAUAGUUGUUGGCCUUUUUGCAUAUAACUCUCGGGUAAUAUUUUGAAUGGAAUUCUCGGGUGCCAA` is recorded as 3.49.

Block 3
Target: Sal-like protein 4, full length isoform B (SALL4, Homo sapiens, UniProt Q9UJQ4-2, residues 1-616)
Method: universal PBM
Molecule type: double-stranded DNA, one strand shown
Medium: in vitro
Concentration: not given
Setting: 8-mer, flanks averaged, mean of replicates
Reading: higher = stronger binding
For `TGGTGCAA`, the E-score was 0.0216.
For `TTATTCAA`, the E-score was 0.348.
For `ACAAATGT`, the E-score was 0.281.
For `CCATACCA`, the E-score was 0.0361.
With `ACTAGCGG` the E-score was -0.188.
With `AGAGGGAT` the E-score was -0.00911.
`TCGCCGCA` gave an E-score of -0.143.

Mixed results
With `PhoQ, residues 284 288 289 292 302 303 TTCLQL` the fold induction was 13.2 (PhoP, residues 12 14 15 18 19 NMSFL (Escherichia coli, UniProt P23836); Sort-seq, measured: YFP reporter; E. coli; PhoQ-PhoP variant library, together with: 10 µM Mg2+; relative to: high Mg2+ state, higher = stronger signaling).
